Experimental data of several laboratories.
Lines come from different studies, so protocols differ. ± gives the spread as reported.

CC(=O)N[C@H](CC(=O)O)C(=O)N[C@H](Cc1c[nH]c2ccccc12)C(=O)N[C@H](Cc1ccccc1)C(=O)N[C@H](CCCCN)C(=O)N[C@H](C)C(=O)N[C@H](Cc1ccccc1)C(=O)N[C@H](Cc1ccc(O)cc1)C(=O)N[C@H](CC(=O)O)C(=O)N[C@H](CCCCN)C(=O)N[C@@H](C(=O)N[C@H](C)C(=O)N[C@H](CCC(=O)O)C(=O)N[C@H](CCCCN)C(=O)N[C@H](Cc1ccccc1)C(=O)N[C@H](CCCCN)C(=O)N[C@H](CCC(=O)O)C(=O)N[C@H](C)C(=O)N[C@H](Cc1ccccc1)C(N)=O)C(C)C  Cmax (statin-treated high-risk CHD women, plasma; oral, 100 mg daily, day 1, 0 to 2 h, mean, undetectable set to 0): 4.03 ng/mL
CC[C@H](C)[C@H](NC(=O)[C@H](CC(C)C)NC(=O)[C@H](Cc1c[nH]c2ccccc12)NC(=O)[C@H](C)NC(=O)[C@@H](NC(=O)[C@H](Cc1ccccc1)NC(=O)[C@H](CC(=O)O)NC(=O)[C@H](CCCNC(=N)N)NC(=O)[C@H](C)NC(=O)[C@H](C)NC(=O)[C@H](CC(C)C)NC(=O)[C@H](C)NC(=O)[C@H](CC(=O)O)NC(=O)[C@H](CC(C)C)NC(=O)[C@@H](NC(=O)[C@@H](NC(=O)[C@H](C)NC(=O)[C@H](CC(C)C)NC(=O)[C@H](CCC(=O)O)NC(=O)[C@H](CO)NC(=O)[C@H](CO)NC(=O)[C@H](Cc1ccccc1)NC(=O)[C@@H](NC(=O)CNC(=O)[C@H](CCC(=O)O)NC(=O)CNC(=O)[C@@H](N)Cc1c[nH]cn1)[C@@H](C)O)[C@@H](C)O)[C@@H](C)CC)[C@@H](C)CC)C(=O)N[C@@H](C)C(=O)N[C@H](C(=O)N[C@@H](CCCCN)C(=O)N[C@H](C(=O)N[C@H](C(=O)N[C@@H](CC(=O)O)C(=O)N[C@@H](CCCCN)C(=O)N[C@@H](CCCCN)C(=O)O)[C@@H](C)O)[C@@H](C)CC)[C@@H](C)O  terminal half-life (healthy human subjects, plasma; subcutaneous, 10 mg once weekly, day 36 after 6 doses, steady state, mean): 37.7 h
COC(=O)c1ccc(CCc2cc3cc4nc(c(OC)c5[nH]c(cc6nc(cc2[nH]3)CC6(C)C)cc5CCCNC(=O)OC(C)(C)C)C(=O)C4(C)C)cc1  B band absorption maximum (DMF; room temperature): 397 nm
CC(C)c1cnc(-c2cc(Cl)ccc2F)cc1Nc1ccncc1C(=O)NC(CO)CO  patients with treatment-related adverse event (monotherapy, item: rash; human patients; oral, dose not given, grade 4, phase I A): 0%
Oc1ccc2ccccc2c1/N=N/c1ccc(/N=N/c2ccccc2)cc1  stability deviation (rat whole blood; 5.0 µg/L, 30 days, -20 °C, long-term storage): 1.3%
CC[C@H](C)[C@H](NC(=O)[C@H](CC(C)C)NC(=O)[C@H](Cc1c[nH]c2ccccc12)NC(=O)[C@H](C)NC(=O)[C@@H](NC(=O)[C@H](Cc1ccccc1)NC(=O)[C@H](CC(=O)O)NC(=O)[C@H](CCCNC(=N)N)NC(=O)[C@H](C)NC(=O)[C@H](C)NC(=O)[C@H](CC(C)C)NC(=O)[C@H](C)NC(=O)[C@H](CC(=O)O)NC(=O)[C@H](CC(C)C)NC(=O)[C@@H](NC(=O)[C@@H](NC(=O)[C@H](C)NC(=O)[C@H](CC(C)C)NC(=O)[C@H](CCC(=O)O)NC(=O)[C@H](CO)NC(=O)[C@H](CO)NC(=O)[C@H](Cc1ccccc1)NC(=O)[C@@H](NC(=O)CNC(=O)[C@H](CCC(=O)O)NC(=O)CNC(=O)[C@@H](N)Cc1c[nH]cn1)[C@@H](C)O)[C@@H](C)O)[C@@H](C)CC)[C@@H](C)CC)C(=O)N[C@@H](C)C(=O)N[C@H](C(=O)N[C@@H](CCCCN)C(=O)N[C@H](C(=O)N[C@H](C(=O)N[C@@H](CC(=O)O)C(=O)N[C@@H](CCCCN)C(=O)O)[C@@H](C)O)[C@@H](C)CC)[C@@H](C)O  terminal half-life (healthy human subjects, plasma; subcutaneous, 10 mg once weekly, day 36 after 6 doses, steady state, mean): 255 h
O=C1CCc2ccc(OCCCCN3CCN(c4cccc(Cl)c4Cl)CC3)cc2N1CO  conversion half-time (1H NMR; phosphate buffer; pH 7.4, 37 °C): ≤ 15 min
COc1cc(NC(C)=O)c2c(c1O)-c1c(OC)c(OC)cc3c1C(C2)N(C)CC3 (centres unmarked)  remaining compound (rat liver homogenate; 100 µg/mL, 24 h, room temperature, post-preparative storage): 95.7 ± 1.4%
NCCCC(=O)OCC(=O)c1ccc(O)cc1F.O=C(O)C(F)(F)F  quantum yield of rearranged acid (photolysis at 300 nm; ammonium acetate buffered acetonitrile-water; pH 5.0, 0.01 mol/L buffer): 0.23
CCCC[C@H](NC(=O)CNC(=O)CNC(=O)CN1CCN(CC(=O)O)CCN(CC(=O)O)CC1)C(=O)N[C@H]1CC(=O)NCCCC[C@@H](C(N)=O)NC(=O)[C@H](Cc2c[nH]c3ccccc23)NC(=O)[C@H](CCCNC(=N)N)NC(=O)[C@@H](Cc2ccccc2)NC(=O)[C@H](Cc2c[nH]cn2)NC1=O [gallium-67 labelled]  tumour to skin uptake ratio (C57 mice, B16/F1 melanoma; 2 h): 46.4
Cc1ncc(COP(=O)([O-])O)c(/C=N\NC(=O)Cn2c(=O)c(Cc3ccccc3)nc3ccccc32)c1O.[Na+]  safe concentration (MTT; rat primary colonocytes, Albino rat, male; 72 h, concentration at 100% viability): 0.034 ± 0.001 µM
CCCC(CCC)NC(=O)c1ccc(OC2OC(C(=O)O)C(O)C(O)C2O)c(OC)c1 (centres unmarked)  Cmax ratio (female Sprague-Dawley rats, plasma; oral, 50 mg/kg of parent drug; relative to: 50 over 20 mg/kg dose): 1.83
CC(C)CCCC(C)CCCC(C)CCO[C@@H]1O[C@H](CO)[C@@H](O[C@H]2O[C@H](CO)[C@@H](O)[C@H](O)[C@H]2O)[C@H](O)[C@H]1O (some centres unmarked)  induction time (dynamic surface tension; 0.0072 mmol/L): 120 s
CCCCC/C=C/C=C/C(=O)NCC(C)C  MRT (rat, sham-operated, plasma; oral, 50 mg/kg): 2.78 ± 0.56 h
CCN(CC)c1ccc2c(-c3ccccc3C(=O)OCCOCCOCC[18F])c3ccc(=[N+](CC)CC)cc-3oc2c1  tracer uptake (rat, bone; 1 h): 0.38 %ID/g
COc1cc2c(cc1OC)CN(CCCCn1ccc3cc(OCC[18F])ccc31)C2  tracer uptake (male CD-1 mouse, bone; intravenous, 280 kBq, 30 min): 5.11 %ID/g
COc1ccc(/C=C/c2ccc(-c3ccc(C)cn3)nc2)cc1  radiative decay rate constant (TCSPC; water, HEPES 100 mM; pH 7.4, zinc-free ligand): 0.04 ns⁻¹
CC(C)[C@H](NC(=O)CNC(=O)[C@H](CCC(N)=O)NC(=O)[C@H](C)N)C(=O)O  AUC(0-last) (LC-MS/MS; human, plasma; intravenous, 30 mg/kg three times daily, day 2, first dose, 10 min infusion, geometric mean): 560 ng·h/mL
Cc1cc(N)nc(C[C@@H]2CNC[C@@H]2OCCCCCc2cccc(N)n2)c1  metabolic rate (in vitro metabolic stability): 0.02 nmol/min/mg protein
CC(C)[C@H](NC(=O)[C@@H]1CCCN1C(=O)[C@H](CCCNC(=N)N)NC(=O)[C@H](CS)NC(=O)[C@H](Cc1c[nH]c2ccccc12)NC(=O)[C@H](CCCNC(=N)N)NC(=O)[C@@H](Cc1ccccc1)NC(=O)[C@H](Cc1c[nH]cn1)NC(=O)[C@H](CCC(=O)O)NC(=O)[C@H](CS)NC(=O)[C@H](CS)NC(=O)COCCOCCNC(=O)[C@@H]1CC(=O)N[C@@H](CCCNC(=N)N)C(=O)NCC(=O)N[C@@H](CC(=O)O)C(=O)N[C@H](Cc2ccc(O)cc2)C(=O)N1)C(N)=O [technetium-99m labelled]  tumour-to-tissue ratio (nude mouse, M21 melanoma xenograft, tumour over liver; intravenous, 0.037 MBq, 2 h; relative to: tumour over liver): 1.53 ± 0.14
CCCC[C@H](NC(=O)CNC(=O)CNC(=O)CN1CCN(CC(=O)O)CCN(CC(=O)O)CCN(CC(=O)O)CC1)C(=O)N[C@H]1CC(=O)NCCCC[C@@H](C(N)=O)NC(=O)[C@H](Cc2c[nH]c3ccccc23)NC(=O)[C@H](CCCNC(=N)N)NC(=O)[C@@H](Cc2ccccc2)NC(=O)[C@H](Cc2c[nH]cn2)NC1=O [copper-64 labelled]  uptake ratio (female C57 mouse, B16/F1 melanoma; intravenous, 0.037 MBq, 0.5 h; relative to: tumour over muscle): 7.01
O=C(O)[C@@H]1C[C@@H](O)CN1C(=O)[C@@H]1CCCN1  pKa2 (potentiometric titration; water; 25 °C, 0.15 mol/dm3 NaCl): 5.9
CCc1cc(Nc2nc(-c3ccc(-n4cnc(C)c4)c(F)c3)cs2)c(C)cc1C  terminal half-life (human, both sexes, plasma; oral, 100 mg, day 1, multiple dose, geometric mean): 7.5 h
CC(C)[C@H](NC(=O)[C@@H]1CCCN1C(=O)[C@H](CCCNC(=N)N)NC(=O)[C@H](CS)NC(=O)[C@H](Cc1c[nH]c2ccccc12)NC(=O)[C@H](CCCNC(=N)N)NC(=O)[C@@H](Cc1ccccc1)NC(=O)[C@H](Cc1c[nH]cn1)NC(=O)[C@H](CCC(=O)O)NC(=O)[C@H](CS)NC(=O)[C@H](CS)NC(=O)[C@@H]1CC(=O)N[C@@H](CCCNC(=N)N)C(=O)NCC(=O)N[C@@H](CC(=O)O)C(=O)N[C@H](Cc2ccc(O)cc2)C(=O)N1)C(N)=O [technetium-99m labelled]  tumour to tissue ratio (C57 mouse, female, B16/F1 melanoma; intravenous, 0.037 MBq, 0.5 h; relative to: tumour over kidneys): 0.32
CCCC[C@H](NC(C)=O)C(=O)N[C@H]1CC(=O)NCCCC[C@@H](C(=O)N[C@@H](C(=O)N2CCC[C@@H]2C(N)=O)C(C)C)NC(=O)[C@H](Cc2c[nH]c3ccccc23)NC(=O)[C@H](CCCN=C(N)N)NC(=O)[C@@H](Cc2ccc3ccccc3c2)NC(=O)[C@@H]2CCCN2C1=O  plasma histamine (healthy dogs, plasma; subcutaneous, 2.25 mg/kg per day, day 1, 2 h post-dose, median): 9.25 ng/mL
Cc1[nH]c(/C=C2\C(=O)Nc3ccc(F)cc32)c(C)c1NC(=O)CCN1CCN(C)CC1  accuracy deviation (dog plasma; 80 ng/mL, 24 h at room temperature after processing, 25 °C): -6.52%
NCCCC(=O)OCC(=O)c1ccc(O)c(C(F)(F)F)c1.O=C(O)C(F)(F)F  quantum yield (photolysis, item: disappearance of compound; unbuffered water): 0.17
N#Cc1nc(N2CCOCC2)nc(N(Cc2ccc(F)cc2)CC2CCCNC2)n1 (centres unmarked)  plasma concentration (female CD-1 mice; intraperitoneal, 10 mg/kg, 0.5 h): 473 ng/mL
O=[N][Fe]1([N]=O)[S](CCO)[Fe]([N]=O)([N]=O)[S]1CCO  conversion to protein-bound form (EPR; mouse plasma): 76 to 100%
N=C(N)NCCC[C@@H]1NC(=O)[C@H](Cc2c[nH]c3ccccc23)NC(=O)[C@@H](CC2CCCCC2)NC(=O)[C@@H]2CCCN2C(=O)[C@@H](NC(=O)CCc2ccccc2)CCCNC1=O  apparent peripheral volume (V2/F) (C57BL/6J mice, brain; intravenous, 1 mg/kg, two-compartment model): 0.41 µg/(ng/g)
CC[C@@H](C)N([11CH3])C(=O)c1nc(-c2ccccc2Cl)c2ccccc2n1  plasma free fraction (ultrafiltration; rhesus monkey, plasma; TSPO preblock scan): 0.116 ± 0.003
O=C([O-])CN1CCN(CC(=O)[O-])CCN(CC(=O)NCC2CCC(C(=O)NC(Cc3ccc4ccccc4c3)C(=O)NCCCCC(NC(=O)NC(CCC(=O)O)C(=O)O)C(=O)O)CC2)CCN(CC(=O)[O-])CC1.[44Sc+3] (centres unmarked)  intact complex (transmetallation stability; 24 h, 37 °C, added: Mg2+ 10 mM): 97.2 ± 0.8%
COc1cc(-c2nc3ccccc3s2)cc(CN2CCN(CC(=O)OC(C)(C)C)CCN(CC(=O)OC(C)(C)C)CC2)c1O  pKa2 (UV-Vis pH titration; 25 °C, ionic strength 0.1 M NaCl): 5.75
NCCCC(=O)OCC(=O)c1cc(F)c(O)c(F)c1.O=C(O)C(F)(F)F  quantum yield (photolysis, item: disappearance of compound; aqueous HEPES buffer with LiClO4; pH 8.2): 0.02
Cn1c(=O)oc2ccc(-c3ccc(CC(C#N)NC(=O)C4CNCCCO4)c(F)c3)cc21 (centres unmarked)  subjects with TEAE (item: total protein decreased; human; 80 mg single dose, fasted): 0%
Cn1cc2cc1C(=O)NCCCC(=O)Nc1cn(C)c(n1)C(=O)Nc1cn(C)c(n1)C(=O)Nc1cc(n(C)c1)C(=O)Nc1cc(n(C)c1)C(=O)NC[C@H](N)CC(=O)Nc1cc(n(C)c1)C(=O)Nc1cc(n(C)c1)C(=O)Nc1cc(n(C)c1)C(=O)N2  circulation time (C57BL/6 mice; intraperitoneal or subcutaneous, 120 nmol/animal): ≥ 48 h
CC/C=C\C/C=C\C/C=C\C/C=C\C/C=C\CCCCOC(CC)C(=O)O (centres unmarked)  tissue concentration (radioactivity, 14C-labelled; Wistar rat, male, kidney cortex; oral, 100 mg/kg, 1 h): 34 µg equivalents/g tissue
CN1CCC[C@]1(C)/C=C/S(=O)(=O)NC(=O)Nc1c2c(cc3c1CCC3)CCC2  percent of dose in urine (human, urine; oral, 50 mg single dose): 69.1%
CC(C)(C)ONc1nc(Nc2ccnc(C(F)(F)F)c2)nc(-c2cccc(C(F)(F)F)n2)n1  tissue/plasma ratio (female Balb/cA nude mice xenograft; oral, 54.14 mg/kg, Cmax; relative to: tumour over plasma): 3.5
CC(C)(O)c1ncc([S@](N)(=O)=NC(=O)Nc2c3c(cc4c2CCC4)CCC3)s1  AUC(0-tau) (healthy human; oral, 10 mg once daily, day 1, capsule formulation, geometric mean): 8630 ng·h/mL
CCC1(CC)C[C@@H](NC(=O)Nc2cccc3c(C)nccc23)c2cc(F)ccc2O1  decrease in deep body temperature (rat; intraperitoneal, 3 mg/kg, ambient temperature 26 °C; relative to: vehicle): ~1 °C
